# Assay results gathered from unrelated publications.
# A part holds a random share of what one study measured.

# Series 1
# Target: RNA binding protein fox-1 homolog 2, RRM domain, GST-SBP tag (RBFOX2, Homo sapiens, UniProt O43251-10, residues 100-194)
# Technique: RNA Bind-n-Seq
# Form: RNA
# Medium: in vitro
# Concentration: 365 nM
# Notes: natural RNA segment, single round, ends assumed
# Baseline: no-protein control
# Reading: higher = stronger binding
# Constant ends, left off below: GGGAGUUCUACAGUCCGACGAUC … UGGAAUUCUCGGGUGCCAA
# Residues (chain): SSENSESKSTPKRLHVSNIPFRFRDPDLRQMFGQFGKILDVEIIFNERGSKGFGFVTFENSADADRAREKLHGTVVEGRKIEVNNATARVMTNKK
Strand,RBNS enrichment (R)
UUGUCUGUGUACAGUUUUUAGAACAUUACAAAGGAUCUGUUUGCUUAGCUGUCAACAAAAAGAAAACCUGAAGGAGCAUUUGGAAGUCAAUUUGAGGUUUUUUUUUUUGU,0.722
CUGCCUGCCAAUGCUCCAACUGAAGAGGCGACCUCUCACCCUGUGGCUCCGCCGUUAAGAGUGACCAGCUUAGCCACAGUUCUGGUGCUCAGCUUGAAGACAAGUCACAG,0.425
GCUACAAAUACCUUAAAAAUGAUAGAUUGAUGAUUUCCUUAAUUCCUAGAAUUUCUUUUAUAAAUGCUUUGUUUACAUUUUAGAUUGUAUCUGUCCUUAAUGUCAAAUGA,0.613
GUGACUAUAUAUAAUUGGGGAGAAGAAGGGAAGAGAGCAGCAGUAGCUUAAGCCUGUUGCUAAGAAAUUUAAUUUCUUAGCAACUUGUAAUUUAGUUAUCAAUUCAAUAU,0.805
GCAGGUAGAUUAGAGCUGUGAAAUCCAUGUACAUUAAUACCCAAUGGGAUAAACUUAGAUUUUUUUUUUACUCUGAACUCUGAAUUGUUUGUGCACAUAUUUCUGCUACC,0.874
GCUCUUCAGUGAGCCUAAGUCUUGGGAACUCAGCAGGCGGCACCUUCUCACACAGCAAGUCCGAGCUGUGAACUGUAGUUCGUGAGAGAAAUCAGCCUGAGGCUGUCUUC,0.277
GCAGAGGUGGCACGGAGGCAAUUGGGGAGUUCUUACUGAAUCCUCCUUUUCCACCCCACACCCUGAAGCCAUUGGAAAACUGGCUUCCUGUGCACUUCUAGAAUCCCAGC,0.159
UUCAAACUACCAUAAAGGGAUUUUAACUGUAUUUUUAUUCUUAGAAACAAUACACCUUUAAACAGAUGUCAAGACCAAAGAUGAUGUAUAAUAAACAGCCGGUGGUUAUG,0.441
GGCCUUGAGGGAAUAAGGGGCCCCUGGCUCUGGGGACCCACCCGGUGGGACUUAGUGGUGAGACACUGGUUGAUCUCUUAGAAGCCCUGGGACACGCCCUCCCUCAUUCA,0.418
CAGGUCUCAGGAGUGCCAUCCCCGGGCUCAGCUCCAGUUCCCUGGGCUCAUGCUACUAGUGCUCUGGGCCCAGUGACCAUGCACCUUCACCCCAGGCAGGCCCUGUGUAC,0.305
UUUCCUCUCUGUAGAGGGAUGACUGACAGUUUUAUCAAUUCUCCUCACCAGGGUUGACUGCCUUCAGGAAAUGCUGGCCCCAAAGGAUUUGAGGAAAACUUGACUGUCAG,0.22
ACACCUGUCAGCCCAAGCAGAGUGAUUCAGGGGCUCCCCGGGGGCAGACACCUGUGCACCCCAUGAGUAGUGCCCACUUGAGGCUGGCACUCCCCUGACCUCACCUUUGC,0.681

# Series 2
# Target: Protein C-ets-1 (ETS1, Homo sapiens, UniProt P14921, residues 1-441, Y397A, full length assumed)
# Technique: protein-binding microarray
# Form: double-stranded DNA, one strand shown
# Medium: in vitro
# Concentration: not given
# Notes: k-mer, scored over probes, only values ≥0.25
# Reading: higher = stronger binding
# Residues (chain): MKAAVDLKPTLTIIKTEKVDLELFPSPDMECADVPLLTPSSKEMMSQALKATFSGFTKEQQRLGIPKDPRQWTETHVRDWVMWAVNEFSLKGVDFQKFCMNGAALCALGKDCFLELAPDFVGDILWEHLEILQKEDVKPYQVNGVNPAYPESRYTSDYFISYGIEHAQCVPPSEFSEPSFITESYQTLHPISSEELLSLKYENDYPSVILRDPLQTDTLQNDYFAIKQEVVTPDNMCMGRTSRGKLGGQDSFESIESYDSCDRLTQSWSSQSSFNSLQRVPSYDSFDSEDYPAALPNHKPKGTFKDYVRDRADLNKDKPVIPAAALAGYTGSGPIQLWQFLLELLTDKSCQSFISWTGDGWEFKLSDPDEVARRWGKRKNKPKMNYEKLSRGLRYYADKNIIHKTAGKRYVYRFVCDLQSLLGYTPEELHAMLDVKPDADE
Strand,E-score
ATACGACA,0.3
GGAGGGGA,0.325
GGCAATCA,0.279
CGGCAAAC,0.393
CAAAACGA,0.307
AATGACAT,0.285
ATTTGTAA,0.284
ACCGGATG,0.404
GCCGCAAA,0.268
AGGAAGTA,0.362
GGATGTCA,0.314
AGCTTCCG,0.337
CTGTTATA,0.256
CCGGAACG,0.257
CGTATACA,0.284
ATTTACCG,0.299
ACATATGT,0.342
CGTGTCAC,0.282

# Series 3
# Target: Interferon regulatory factor 5, full length, phosphomimetic (IRF5, Homo sapiens, UniProt Q13568-2, residues 1-514, K96S/S451D/S453D/S456D/S462D)
# Technique: protein-binding microarray
# Form: double-stranded DNA, one strand shown
# Medium: in vitro
# Concentration: 250 nM
# Notes: 60-bp whole probe
# Together with: salmon DNA 0.4 mg/ml
# Baseline: random background probes
# Reading: higher = stronger binding
# Constant ends, left off below: GCCTAGCAC … GTCTTGATTCGCTTGACGCTGCTG
Strand,log fluorescence [z-score]
TTAGATTTCAGACAGGATTAGTGCTAG,0.49
TCTAACTTCCCAATGGTCTTGTGCTAG,0.146
GACGATATCCGGTTTCGAGACGTGCTA,3.3
GACGGTCCCCTTATCCTGACGTGCTAG,-0.162
GGGCAGGAAACGGAGGACACGTGCTAG,-0.744
TTAGGACTTGGGACTGGGTTAGTGCTA,-0.418
GACGTTATCCTTATCCTGACGTGCTAG,0.117
GAAGGACTGCTTTTCCTGACGTGCTAG,-0.159
TTAGAACCGAGTCTCGATTAGTGCTAG,0.646
GTAGGACTGGGGTATCGGTTAGTGCTA,2
GACGAACTGAGTTTCGGGACGTGCTAG,5.91
GAGGCTTTTTTTTTTTTTTTGTGCTAG,0.448
TTAGGTCTCGGTTTCGGATAGTGCTAG,4.44
GACGCTATCGGTATCGGGACGTGCTAG,6.83
GACGGTTTCGGGTATCGGCACGTGCTA,8.2
GCCGGTATCGGACTGGGGACGTGCTAG,1.24
GTCGGTCTCGGTATCGGGACGTGCTAG,1.63
GACGATATCAGTGTCGAGACGTGCTAG,0.784
TTAGGACTGGGACTGGGCTAGTGCTAG,-0.467
GACGAACTGGGGACTTGAGACGTGCTA,-0.31
GACGGTTTCCTTCTCCTCACGTGCTAG,0.849
TTAGGTTTCGACTATCGGATAGTGCTA,8.26

# Series 4
# Target: Histone acetyltransferase KAT6A, winged helix 1, GST fusion (KAT6A, Homo sapiens, UniProt Q92794, residues 1-85)
# Technique: protein binding microarray
# Form: double-stranded DNA, one strand shown
# Medium: in vitro
# Concentration: not given
# Notes: 8-mer, flanks averaged, mean of 2 arrays, mostly near background
# Baseline: not given
# Reading: higher = stronger binding
# Residues (chain): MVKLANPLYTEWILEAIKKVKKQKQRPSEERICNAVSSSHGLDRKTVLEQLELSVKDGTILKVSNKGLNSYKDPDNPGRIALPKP
Strand,E-score
CGCTTGAG,0.105
ACCTAAGA,-0.125
CCCCGCCC,0.155
ATTGCCAC,-0.174
AAACTGCA,-0.201
AGACTCGA,-0.0184
ACTACTGC,0.112
TCCTGTAA,-0.107
CAATAACA,-0.102
CAAGCCAC,-0.159
CACCACCG,0.264
ATCCCGTA,0.268
CTGGGCAA,-0.262
ACATTGGA,-0.0464
AATGTGGA,-0.191
GAATCACC,-0.278
AGTTCACG,-0.0188
AAGCCGGC,0.313
CTGGTACA,-0.0849
CTGACGCC,0.15
CTTTAGCC,-0.0559
CCTGTCTC,-0.185
ATGAGCAT,-0.267
AATGCCAA,-0.163
CCGCTACG,0.395

# Series 5
# Target: RING finger protein unkempt homolog, zinc fingers 1-6, GST-SBP tag (UNK, Homo sapiens, UniProt Q9C0B0, residues 30-357)
# Sequence of UniProt Q9C0B0 (30-357, looked up): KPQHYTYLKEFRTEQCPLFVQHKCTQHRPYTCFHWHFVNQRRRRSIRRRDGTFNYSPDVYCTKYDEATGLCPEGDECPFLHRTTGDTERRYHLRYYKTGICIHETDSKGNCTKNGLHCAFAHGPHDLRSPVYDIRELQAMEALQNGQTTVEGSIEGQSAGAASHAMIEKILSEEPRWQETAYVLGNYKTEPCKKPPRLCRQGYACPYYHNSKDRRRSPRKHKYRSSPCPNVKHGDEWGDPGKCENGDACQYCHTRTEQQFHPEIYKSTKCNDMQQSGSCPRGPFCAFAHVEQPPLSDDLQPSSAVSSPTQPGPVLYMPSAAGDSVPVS
# Technique: RNA Bind-n-Seq
# Form: RNA
# Medium: in vitro
# Concentration: not given
# Notes: RNA with constant flanks, human and mouse sites, ends assumed
# Baseline: input RNA pool
# Reading: higher = stronger binding
# Constant ends, left off below: GGGAGUUCUACAGUCCGACGAUC … CAACAGAGGAUUGAGCAUCA
Strand,bound/input enrichment
ACAACUCUGGAUAGAGCUGCGUGUUUGCCACCUGGAGACCAUAAUGCAUUAUAUGUAAAUAGCUUCCCACUUCUGGACCCAUCUGAUGCACCUUUUCCCUCACUCGAUUCCCCGGGAAAA,0.18 ratio
ACACCUAGUGACCGUUCCAGAUAUAGAUUAGAUUUGGAAGGAAAUGAGUAUCCUAUUCAUAGUACCCCAAACUGUCAUGACCAUGAACGCAACCAUAAAGUGCCUCCACCUAUUAAACCU,0.521 ratio
CAGAUUUUGAAAACGUUGAUGGAAGAAACAACACGUCAGCAGAGCAUGAUACGGGAGCUCAUAGAGACCAACCAGCAACUGAAAAGUGAACUUCAGCUAGAACAGAACCGAGCGGCACAC,0.423 ratio
CCUGAAUUCUUGGUCUAUUUUCCAUUGCUAACUGAAAUGGCAAAGAAGUAUAAUAUGAAACUAAUCUACAAAAAAACAUUUUUGGAAUUCUAUGAAGAAAAGAUUAAAAACAAUGAAAAC,0.286 ratio
GGUUUCCCCAAAGUCAGUAUUCUCCUCAGGGAUGCCAUUGAAAAGUUAUUUCCUGAUGCCAUUAGACUGAGAUUUGAAGACAUUCAGCAGAAUAAUGACAUAGUCCAAAGUCUUGCAGCC,0.278 ratio
GCUCACAGCAUCCCAGUAACUGAUGGCAUGUUUGUCUUUAUGUAAACUAUAUUGAAAUUUUUAGGGGCUAUUUUCCAUUAUGUCUGAACCUACUUUUGAUCUGAAAGCUUAACUUUAUAA,2.35 ratio
UUUGCUUUUCAUCUUUUAUAGAUGUAAUCUGAUUUUCAAAAAUCAUUAACACUUUUUAAUUAGUAUCGACUAAGACUUUUUCCCCCUGGAAUCGAGGCUGUGUGUCCGUCAUCCCAGCCC,4.63 ratio
CUGGCAAUCCAGUGCCGUGCUGACCAGUCUUUCACUUCUCCACCCCCGAGAGAUUUCUUAUUAGAUAUUGCACGACAAAGAAAUCAAACCCCUUUGCCACUGAUCAAGCCAUAUUCAGGU,0.263 ratio
UCUUUUCAUCUAUCAGAAAGUGUUCUUUUGUGGAGAAAAAAGAAGAAAACUUUCUCACUUACUUAUUAAUUUCUCAUUUACUAAUAAAUUUCAAUAAACUUUCUUACUGAUGCAAACUAU,24.5 ratio
CACAAAGAGGUUGACCAGAGUGAGAAACAUUUCAGUGAAGAUAAUAAUGAAUCAGUACCUAUGGAGUGCGAUUCCUUCUGUAGUGACCAGAAUGAGUCUGAAGUAGAGUCAUCCGCAAAU,0.161 ratio
ACAGCCCUUGCCUGGAGCCCAGGAACCCCAUCCUUGCUUCAUCUCAGUUCUUCAUGGGCUUCACUCUUCCCACUCACGGAAGGGAGGUAGCUCAGGGACCUCCACUGUGGGACCCUUGAG,0.124 ratio

# Series 6
# Target: Sal-like protein 4, full length isoform A (SALL4, Homo sapiens, UniProt Q9UJQ4, residues 1-1053)
# Sequence of UniProt Q9UJQ4 (whole entry, looked up): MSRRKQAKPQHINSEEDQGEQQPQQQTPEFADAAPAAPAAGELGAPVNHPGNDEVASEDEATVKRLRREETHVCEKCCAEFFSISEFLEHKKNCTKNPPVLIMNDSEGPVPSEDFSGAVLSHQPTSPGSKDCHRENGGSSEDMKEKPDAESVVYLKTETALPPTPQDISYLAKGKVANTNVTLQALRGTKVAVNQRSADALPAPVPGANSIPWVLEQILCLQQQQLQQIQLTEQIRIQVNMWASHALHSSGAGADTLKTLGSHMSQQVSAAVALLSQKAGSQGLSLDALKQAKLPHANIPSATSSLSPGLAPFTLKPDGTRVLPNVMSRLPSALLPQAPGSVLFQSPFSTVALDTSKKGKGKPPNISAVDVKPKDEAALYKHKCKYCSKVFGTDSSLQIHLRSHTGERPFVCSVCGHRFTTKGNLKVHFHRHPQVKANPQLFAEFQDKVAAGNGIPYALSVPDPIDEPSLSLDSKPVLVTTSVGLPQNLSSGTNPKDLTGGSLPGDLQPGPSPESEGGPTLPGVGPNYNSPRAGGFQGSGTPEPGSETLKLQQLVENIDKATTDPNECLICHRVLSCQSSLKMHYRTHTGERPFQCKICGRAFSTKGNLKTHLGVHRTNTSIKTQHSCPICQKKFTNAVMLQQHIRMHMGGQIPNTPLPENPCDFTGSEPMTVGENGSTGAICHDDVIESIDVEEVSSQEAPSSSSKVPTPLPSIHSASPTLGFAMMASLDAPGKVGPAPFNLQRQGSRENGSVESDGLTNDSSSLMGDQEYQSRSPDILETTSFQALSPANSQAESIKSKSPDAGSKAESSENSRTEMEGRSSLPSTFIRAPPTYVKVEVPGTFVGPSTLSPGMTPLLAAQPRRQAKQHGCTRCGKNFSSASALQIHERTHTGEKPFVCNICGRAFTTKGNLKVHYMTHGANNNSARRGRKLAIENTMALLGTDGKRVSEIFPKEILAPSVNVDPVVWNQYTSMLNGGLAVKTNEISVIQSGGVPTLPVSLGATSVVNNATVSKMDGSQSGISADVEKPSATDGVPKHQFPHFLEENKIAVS
# Technique: universal PBM
# Form: double-stranded DNA, one strand shown
# Medium: in vitro
# Concentration: 600 nM
# Notes: 8-mer, flanks averaged, mean of replicates
# Reading: higher = stronger binding
Strand,E-score
GCACGTGA,-0.0829
TATCCCGA,-0.0901
CGATCGGC,-0.0677
GAAGGCCA,-0.304
ATAAGCGC,-0.095
ACCTACTC,0.00487
GTCCACGA,-0.208
GTCGACTA,0.0838
CAGCCTAC,-0.132
AACCCAGA,-0.143
ACGGAGGG,-0.178
GAGGTGAC,-0.0171
AATCCCGG,-0.204
GTCTACAA,0.121
CCAAGTGA,-0.0512
ACTGTCGC,-0.161
GAATGTCA,-0.0265
GCAACTCC,-0.195
AGAGCGCG,-0.246
AGCTGGAG,-0.171

# Some of these lines once more (series 2):
Strand,E-score
ATACGACA,0.3
GGAGGGGA,0.325
GGCAATCA,0.279
CGGCAAAC,0.393
CAAAACGA,0.307
AATGACAT,0.285
ATTTGTAA,0.284
ACCGGATG,0.404
GCCGCAAA,0.268
AGGAAGTA,0.362
GGATGTCA,0.314
AGCTTCCG,0.337
CTGTTATA,0.256
CCGGAACG,0.257
CGTATACA,0.284
ATTTACCG,0.299
ACATATGT,0.342
